Published values of several laboratories.
Numbered parts are unrelated; each lists some results of a single study.

Block 1
Target: Histone acetyltransferase KAT6A, winged helix 1, GST fusion (KAT6A, Homo sapiens, UniProt Q92794, residues 1-85)
Technique: protein binding microarray
Molecule type: double-stranded DNA, one strand shown
Sample: in vitro
Tested at: not given
Setting: 8-mer, flanks averaged, mean of 2 arrays, mostly near background
Relative to: not given
Reading: higher = stronger binding
Construct (chain): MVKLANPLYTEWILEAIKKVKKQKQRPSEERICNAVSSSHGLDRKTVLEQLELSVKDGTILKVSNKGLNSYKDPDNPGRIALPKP
With `TGCAAACA` the E-score was -0.115.
`GAGCAGGA` gave an E-score of -0.0433.
The E-score of `ACTTTTCC` is reported as 0.0974.
`ACGTAGGA` gave an E-score of -0.159.
`CCTAGTGC` has an E-score of 0.0327.
The E-score of `AGTTAGAG` is reported as -0.099.
The E-score of `CGCATACC` is reported as 0.258.
`GAAAGTAA` gave an E-score of -0.0551.
With `ATAGTGGA` the E-score was -0.199.
`GGGGACTA` has an E-score of -0.0302.
With `AGGTTAAA` the E-score was -0.118.
With `TCTCATAA` the E-score was -0.161.
With `AAGGGCAT` the E-score was -0.277.
For `GATGCTTA`, the E-score was 0.0205.
`CTTTCCGC` has an E-score of 0.238.
The E-score of `AACAAGCG` is reported as 0.123.
`TCCTCCCA` gave an E-score of -0.113.
`AACCCTAT` has an E-score of -0.0938.
`ACCCCCGT` gave an E-score of 0.293.
With `ACTCCAAT` the E-score was -0.0861.
For `GTATATAA`, the E-score was -0.157.
The E-score of `CGGCCATA` is reported as 0.167.
With `AACGTCAG` the E-score was -0.245.
With `AGGACTCA` the E-score was -0.108.
With `TAGGAACA` the E-score was -0.142.

Block 2
Target: RING finger protein unkempt homolog, zinc fingers 1-6, GST-SBP tag (UNK, Homo sapiens, UniProt Q9C0B0, residues 30-357)
Technique: RNA Bind-n-Seq
Molecule type: RNA
Sample: in vitro
Tested at: not given
Setting: RNA with constant flanks, human-mouse chimeric sites, ends assumed
Relative to: input RNA pool
Reading: higher = stronger binding
Shared flanks, not repeated: GGGAGUUCUACAGUCCGACGAUC … CAACAGAGGAUUGAGCAUCA
Construct (chain): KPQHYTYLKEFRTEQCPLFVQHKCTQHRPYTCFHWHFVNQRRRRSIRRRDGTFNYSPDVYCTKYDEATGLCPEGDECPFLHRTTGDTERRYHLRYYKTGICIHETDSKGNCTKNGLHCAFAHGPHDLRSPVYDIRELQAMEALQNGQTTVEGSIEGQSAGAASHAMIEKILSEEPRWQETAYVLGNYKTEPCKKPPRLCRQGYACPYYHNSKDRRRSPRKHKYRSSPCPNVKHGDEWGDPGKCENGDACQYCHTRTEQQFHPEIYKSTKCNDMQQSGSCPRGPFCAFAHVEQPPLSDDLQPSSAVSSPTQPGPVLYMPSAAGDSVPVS
`CUCAGAGAUGUGGCAUAUCAGUAUGUGAAAAAGGGGUCUCGAAUUUAUGUGGAAGGGAAAGUGGACUAUGGCGAGUACAUGGAUAAAAACAAUGUGAGGCGGCAAGCAACAACAAUCAUA` has a bound/input enrichment of 0.387 ratio.
`UGGCGCCUGCGCUCCCCACUCGUGUUUUUAAGUGUAUUUUUAUAAGAUACAUGUAUUUACAAUUGAGCUUUUGUUACUAUAAUACUGAAACAUCUCUGAGAUUAUGAAAAAUGUUUCAAU` has a bound/input enrichment of 0.136 ratio.
`GUAAUGGACGUCAACACUGCUUUACAAGAGGUGCUGAAGACCGCCCUCAUCCACGAUGGCCUAGCACGUGGCAUACGCGAAGCUGCCAAAGCCUUAGACAAGCGCCAAGCCCAUCUGUGU` gave a bound/input enrichment of 0.288 ratio.
`CUUAAUGUUAAUAUUUUUGAAUAAAUGAAGCUAAAAUGUCUGCUUUUGGUACAACACGCAUUAAUAAAAGGUUAAGUAAGUUUUGUUACUGAAGUACGUAAUACUUACUCAGAAAAAAAC` gave a bound/input enrichment of 0.367 ratio.
The bound/input enrichment of `CACAGAGCAGCACCUACCCCCUCCUCCUUUCCACACCUGCAAACUCUUUUACUUGGGCUGAAUAUUUAGUGUUAAUUCAUCUCAGCUUUUGAGGGCUCUGUGGCAAAUUCCCGGAUUAAA` is reported as 0.538 ratio.
`GCGAACAGGACUACAGAAAUGCUGGUAAUUUCAGUCACUUGCUGAUGACUUCUGAUGUCCCAGCAAAUGUUGGCAUUGUUGACUGCUGAGAAGAUACACUCGCAAGGCCACGUCUAAGGU` has a bound/input enrichment of 0.0981 ratio.
`GUGACUGGUGUUAAGAUUUCCCCUCAGAAAAGAACUGCAGUAGUCACCAUAAUUCCAUCUGUGGUGAGUGCCAGUCAGAUUGUGGAGCUGGUCCCAGACCUCAGUUUAGAUACUGGGACU` has a bound/input enrichment of 0.522 ratio.
For `GAUCAUGAACCACCAUCAGAAAUGAAGAUGAGAUUACCCAGACGAGCCAAAACAGCUGCGCUACAGAAAAGUAAACUUAACCUUGCACCAAUUUCUCAUGAAGAUACAAGUUAAGAGAGC`, the bound/input enrichment was 0.348 ratio.
`UCAAGGGGGCACUGCAGAGCCAUGCCUUUCCUUGACAUACAGAAAAAGCUGGGCAUCAGCCUGGACCGGCACUUUAUGUUCCUAAGCGGUGAACAGCCCUAUAAGAACGCCGCUCGGUGC` gave a bound/input enrichment of 0.085 ratio.
`GUUCGGCUCUGGGAUCAUGCCACAAUGACAGAAGUGAAAUCUCUGAAUUUUAAUAUGUCUGUUAGUAGCAUGGAGUAUAUUCCUGAAGGAGAGAUUUUGGUUAUAACUUAUGGACGAUCU` gave a bound/input enrichment of 0.56 ratio.
The bound/input enrichment of `AAUGUUCUUAAUAUUUUUGAAUAAAUGAAGCUAAAAUGUCUGCUUUUGGUACUACAUGCAUUAAUAAAAGGUUAAGUUUUGUUUUCCACUGAAGUACUAUUUAACAUCUCAGAAAAAAAC` is reported as 0.204 ratio.

Block 3
Target: RNA binding protein fox-1 homolog 2, RRM domain, GST-SBP tag (RBFOX2, Homo sapiens, UniProt O43251-10, residues 100-194)
Technique: RNA Bind-n-Seq
Molecule type: RNA
Sample: in vitro
Tested at: 365 nM
Setting: natural RNA segment, single round, ends assumed
Relative to: no-protein control
Reading: higher = stronger binding
Shared flanks, not repeated: GGGAGUUCUACAGUCCGACGAUC … UGGAAUUCUCGGGUGCCAA
Construct (chain): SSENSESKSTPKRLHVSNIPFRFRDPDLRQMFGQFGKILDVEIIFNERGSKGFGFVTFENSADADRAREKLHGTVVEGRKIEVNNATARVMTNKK
Under “RBNS enrichment (R)”, `CAGUUGUUUUAAAAAUACUUAAUAAAAUAAGCUUUUUUCCUGUGGAAGAGAAAUGGUCUCCUUGGUUUUAAAAAUAACUUAGUGUCACGGUACUUUCUCUGUCCUCUCAA` is recorded as 0.318.
`GACCUAGAGCCAGGAGAAACCAGCUAAAGACCUGCAGGCUGCACCCACCUCCUCCCCUUCCUACCCCCUAGGAUGCUAUUCCCUUGGGCUGUGGUGGAAAAAUGAGGGCU` — result for “RBNS enrichment (R)”: 0.595.
Under “RBNS enrichment (R)”, `UCUCAGUUUGUUUUCAAUACAAACAGCAACCACUGAAAUGCAGAAAAUGGUAAUCAAGUGUGAUGUUUCUAUAAAAAUAAUUGAGAUUCACAUGUAAUAGACCCUUUAGC` is recorded as 0.288.
`GGGAGAGCUGAGUGCUGAGCCUUGGGAGCCCCUGCCAGCCACGUGCACCUGUGGACAGUGGGUGGGGCACUACUCCCCACUCAGAGCACAAAUGCAACCCCUCCCCUACA`: “RBNS enrichment (R)” 0.512.
`UGAACUUGUUUUAUAUUUGCAUAUCAAGAGUCAAGUAUGAUGUUUCUUUAAGUUGACUUUUUUUACUUCAUUAUUUUUAGGAAUAAAUGUAAGAUUUUACAAAUCUUUUA`: “RBNS enrichment (R)” 1.03.
`GAAAUGAUUCUUAAGUUAUUGGUAAAAUAUAACUUUCUCAGUUUUUAAAAGUUUACAAAAUUUUUUUUUUUGUUUUGAGACAGAGUAUGGCUUUGUUACCCAGGCUGGAU` — result for “RBNS enrichment (R)”: 0.886.
`GUUCCCGCAGCCGCCACCACUAGCCUCCUUAGGGCUGGCCUUGUCCAAAGAAUGGGGGUGGGAGCGCCAAGGGGCAGAGACUCUCCUUGACCCUCUCCCUAAGGUUGGAU`: “RBNS enrichment (R)” 0.287.
`UUAGCCCGUUGCCACUGUUCGGGAUUCGAUUUGAAACUCAUCACUAGUAUAGAAGUGGCAUAUCCCACUAGCUUCUACUUUCCUGAUAUAUUUUUACAAAUAACUUUAUU` — result for “RBNS enrichment (R)”: 0.521.
For `AUUUGAUCAGACCAAACAGUGCUGUUUCCCGGGGAGGAAACACUUUUUUAAUUACCCUUUUGCAGGCUCCCACCUUUAAUCUGUUUUAUACCUUGCUUAUUAAAUGAGCG`, “RBNS enrichment (R)” read 0.482.
Under “RBNS enrichment (R)”, `ACUCAAAAUCUGUUUAUUGGGUUACUGCCCCCAUAAAAAGUAAACAUGACUUUUAAGUAUUUUUUUAUAAACAGCUCAAUAUAAAACAUAGACAGUGUUUGAUUAUUUUC` is recorded as 0.732.
Under “RBNS enrichment (R)”, `UCUUUUAACCUGCGCAUGUGUGUGCACAUGUGCAUGCGCAUACACACACACACACACACACACACACAUACCUUAAAAAUUUUUUAAAGUACAUUUGUUGUUGCUUGUAA` is recorded as 0.717.
`UUCCCCUCGUGUGAGCCCAGCCUGUGGUCUUCUCCGUACCCGCAACGUGGUCAUCUGUGCCCGUGACGUCACCUGUGCCCGUGCGUGGCGUCCCCGUCUCCGUUGGGGCC` — result for “RBNS enrichment (R)”: 2.86.

Block 4
Target: Prothrombin, mature alpha-thrombin (F2, Homo sapiens, UniProt P00734)
Technique: aptamer microarray, sandwich
Molecule type: DNA with 2'F-ANA
Sample: in vitro
Tested at: 200 nM
Setting: whole 15-mer aptamer, many near background
With: Cy3 exosite-II aptamer, 400 nM
Reading: higher = stronger binding
Strand: GGTTGGTGTGGTTGG
`2'F-ANA at 2 4 7 11 12`: “mean fluorescence intensity” 563 a.u.
`2'F-ANA at 3 6 11 13 14 15` — result for “mean fluorescence intensity”: 465 a.u.
`2'F-ANA at 3 4 8 9 10 12 15`: “mean fluorescence intensity” 339 a.u.
For `2'F-ANA at 1 2 3 5 6 10 15`, “mean fluorescence intensity” read 48.8 a.u.
For `2'F-ANA at 1 2 3 4 6 7 9 10 11 12 14 15`, “mean fluorescence intensity” read 56.3 a.u.
`2'F-ANA at 2 3 4 6 9 11 12 13 14 15`: “mean fluorescence intensity” 207 a.u.
Under “mean fluorescence intensity”, `2'F-ANA at 1 3 6 7 8 9 10 12 13 14` is recorded as 81.8 a.u.
`2'F-ANA at 1 2 4 6 8 9 11 12 15`: “mean fluorescence intensity” 204 a.u.
For `2'F-ANA at 1 3 4 7 9 10 11 12 15`, “mean fluorescence intensity” read 77 a.u.
For `2'F-ANA at 3 4 5 8 9 10 11 12 14 15`, “mean fluorescence intensity” read 57.2 a.u.
Under “mean fluorescence intensity”, `2'F-ANA at 1 3 6 7 9 10 13 15` is recorded as 73.9 a.u.
Under “mean fluorescence intensity”, `2'F-ANA at 2 3 4 5 6 7 11 13 14` is recorded as 49.4 a.u.
Under “mean fluorescence intensity”, `2'F-ANA at 1 3 4 9 10 11 13 15` is recorded as 56.6 a.u.
`2'F-ANA at 2 3 4 5 6 9 10 12` — result for “mean fluorescence intensity”: 60.7 a.u.
Under “mean fluorescence intensity”, `2'F-ANA at 2 4 5 7 10 12 15` is recorded as 49.1 a.u.
For `2'F-ANA at 1 4 8 9 10 11 12 13 14 15`, “mean fluorescence intensity” read 50.9 a.u.
For `2'F-ANA at 1 6 7 10 11 13 14`, “mean fluorescence intensity” read 57.5 a.u.
Under “mean fluorescence intensity”, `2'F-ANA at 1 5 8 10 12 13 15` is recorded as 50.7 a.u.
`2'F-ANA at 1 3 4 5 8 9 11 12 13` — result for “mean fluorescence intensity”: 71.1 a.u.
`2'F-ANA at 2 4 6 8 11 12 13 14 15`: “mean fluorescence intensity” 89.4 a.u.
Under “mean fluorescence intensity”, `2'F-ANA at 1 3 4 6 7 8 9 10 11 12 13 14` is recorded as 136 a.u.
